Measurements collected from several papers.
Compare with care: the assays were run in different laboratories. “And” joins repeats or separate records; there may be more than shown. ± gives the spread as reported.

Compound	test system	conditions	how to read	quantity	value
CN1CCC[C@]1(C)/C=C/S(=O)(=O)NC(=O)Nc1c2c(cc3c1CCC3)CCC2	human, plasma	oral, 100 mg twice daily, day 14, multiple ascending dose		AUC(0-t)	216000 ng·h/mL
CC(O)c1nc(-c2ccc3c(c2)CC[C@H]3NC(=O)c2cnn(C)c2)no1 (stereo partly drawn)	human, pooled plasma	oral, 20 mg, 2 to 264 h	baseline: total radioactivity AUC	AUC(0-t) share of total radioactivity	~46.9%
CC(C)(O)c1ncc([S@](N)(=O)=NC(=O)Nc2c3c(cc4c2CCC4)CCC3)s1	healthy human subjects, plasma	oral, 100 mg	baseline: fed over fasted	AUC(0-t) fold change	1.49 fold
[2H]C([2H])([2H])NC(=O)c1ccc(N2C(=S)N(c3ccc(C#N)c(C(F)(F)F)c3)C(=O)C2(C)C)cc1F	healthy male human, plasma	oral, 160 mg, fasted, single dose		AUC(0-t)	749000 ± 96900 ng·h/mL
CC(C)[C@H](NC(=O)CNC(=O)[C@H](CCC(N)=O)NC(=O)[C@H](C)N)C(=O)O	human	up to 30 mg/kg three times daily, 3 days		AUC(0-t) increase over dose-proportional	123%
Cn1c(=O)oc2ccc(-c3ccc(CC(C#N)NC(=O)C4CNCCCO4)c(F)c3)cc21 (stereo not drawn)	human volunteers, plasma	60 mg single dose, fasted, geometric mean		AUC(0-t)	5370 ng·h/mL
CCc1cc(Nc2nc(-c3ccc(-n4cnc(C)c4)c(F)c3)cs2)c(C)cc1C	human, plasma	oral, 100 mg once daily, day 14, geometric mean		AUC(0-t)	2730 ng·h/mL
CC(OS(=O)(=O)O)c1nc(-c2ccc3c(c2)CCC3NC(=O)c2cnn(C)c2)no1 (stereo not drawn)	human, pooled plasma	oral, 20 mg, 2 to 264 h	baseline: total radioactivity AUC	AUC(0-t) share of total radioactivity	1.31% and ~1.31%
O=C(CCc1ccc(CNC(C(=O)OC2CCCC2)C2CCCCC2)cn1)NO (stereo not drawn)	human, plasma	oral, 20 mg single dose, geometric mean		AUC(0-t)	39.4 ng·h/mL

Excerpt of the above:
Compound	test system	conditions	how to read	quantity	value
[2H]C([2H])([2H])NC(=O)c1ccc(N2C(=S)N(c3ccc(C#N)c(C(F)(F)F)c3)C(=O)C2(C)C)cc1F	healthy male human, plasma	oral, 160 mg, fasted, single dose		AUC(0-t)	749000 ± 96900 ng·h/mL
